Results of several laboratories.
Each numbered part is a random draw from the data of one study; scales do not carry over between parts. Several values in a cell are separate wells, animals, samples, runs or records.
Chain of UniProt P21918 (whole entry, looked up): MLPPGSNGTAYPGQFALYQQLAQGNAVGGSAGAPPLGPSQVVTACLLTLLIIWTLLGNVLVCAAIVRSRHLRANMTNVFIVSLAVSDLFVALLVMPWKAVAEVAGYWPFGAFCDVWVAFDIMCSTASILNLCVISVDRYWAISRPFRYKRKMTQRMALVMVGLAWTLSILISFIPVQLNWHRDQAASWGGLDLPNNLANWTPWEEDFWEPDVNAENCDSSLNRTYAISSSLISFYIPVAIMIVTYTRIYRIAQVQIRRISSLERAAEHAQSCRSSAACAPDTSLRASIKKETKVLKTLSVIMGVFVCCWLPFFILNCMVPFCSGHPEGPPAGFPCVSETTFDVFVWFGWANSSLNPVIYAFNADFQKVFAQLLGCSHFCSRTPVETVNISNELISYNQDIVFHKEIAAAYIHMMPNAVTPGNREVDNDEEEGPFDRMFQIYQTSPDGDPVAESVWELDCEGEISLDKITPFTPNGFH
Chain of UniProt P41143 (whole entry, looked up): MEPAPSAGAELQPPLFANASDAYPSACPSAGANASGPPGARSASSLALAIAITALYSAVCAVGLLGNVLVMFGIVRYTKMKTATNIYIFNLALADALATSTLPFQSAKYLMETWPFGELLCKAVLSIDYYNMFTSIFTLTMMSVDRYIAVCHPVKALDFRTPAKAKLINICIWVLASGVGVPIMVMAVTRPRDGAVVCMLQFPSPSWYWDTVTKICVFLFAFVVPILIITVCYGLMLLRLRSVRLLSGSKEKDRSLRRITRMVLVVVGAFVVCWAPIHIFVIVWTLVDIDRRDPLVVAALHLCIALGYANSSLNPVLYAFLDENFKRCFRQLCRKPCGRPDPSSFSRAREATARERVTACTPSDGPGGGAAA
Chain of UniProt P08908 (whole entry, looked up): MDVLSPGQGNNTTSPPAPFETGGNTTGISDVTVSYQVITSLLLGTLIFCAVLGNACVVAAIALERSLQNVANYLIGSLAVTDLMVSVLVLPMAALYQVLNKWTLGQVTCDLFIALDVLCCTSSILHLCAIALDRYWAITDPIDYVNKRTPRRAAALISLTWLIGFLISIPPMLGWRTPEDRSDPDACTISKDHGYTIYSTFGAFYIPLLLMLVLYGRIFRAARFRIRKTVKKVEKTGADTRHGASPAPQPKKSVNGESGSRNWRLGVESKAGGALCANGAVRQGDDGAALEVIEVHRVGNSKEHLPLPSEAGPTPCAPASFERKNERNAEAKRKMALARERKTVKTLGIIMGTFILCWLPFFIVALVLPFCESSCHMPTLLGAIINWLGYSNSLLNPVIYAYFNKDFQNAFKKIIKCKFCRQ
Chain of UniProt P23975 (whole entry, looked up): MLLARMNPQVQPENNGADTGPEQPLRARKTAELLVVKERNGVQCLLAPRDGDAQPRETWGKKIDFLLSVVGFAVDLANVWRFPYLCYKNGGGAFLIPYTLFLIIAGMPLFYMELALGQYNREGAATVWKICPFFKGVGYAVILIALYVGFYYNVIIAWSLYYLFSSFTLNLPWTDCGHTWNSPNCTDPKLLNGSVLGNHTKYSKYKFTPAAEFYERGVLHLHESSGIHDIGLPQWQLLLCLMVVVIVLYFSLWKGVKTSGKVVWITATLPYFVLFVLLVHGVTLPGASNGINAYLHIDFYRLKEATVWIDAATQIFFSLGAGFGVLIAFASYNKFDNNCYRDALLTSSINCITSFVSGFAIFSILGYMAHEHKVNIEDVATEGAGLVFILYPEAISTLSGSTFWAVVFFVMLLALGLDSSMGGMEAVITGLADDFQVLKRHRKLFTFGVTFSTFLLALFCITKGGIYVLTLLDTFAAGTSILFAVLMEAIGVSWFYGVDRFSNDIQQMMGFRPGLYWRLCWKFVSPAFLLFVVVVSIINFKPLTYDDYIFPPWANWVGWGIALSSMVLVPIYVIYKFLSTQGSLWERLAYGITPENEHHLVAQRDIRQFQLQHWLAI
Chain of UniProt P41145 (whole entry, looked up): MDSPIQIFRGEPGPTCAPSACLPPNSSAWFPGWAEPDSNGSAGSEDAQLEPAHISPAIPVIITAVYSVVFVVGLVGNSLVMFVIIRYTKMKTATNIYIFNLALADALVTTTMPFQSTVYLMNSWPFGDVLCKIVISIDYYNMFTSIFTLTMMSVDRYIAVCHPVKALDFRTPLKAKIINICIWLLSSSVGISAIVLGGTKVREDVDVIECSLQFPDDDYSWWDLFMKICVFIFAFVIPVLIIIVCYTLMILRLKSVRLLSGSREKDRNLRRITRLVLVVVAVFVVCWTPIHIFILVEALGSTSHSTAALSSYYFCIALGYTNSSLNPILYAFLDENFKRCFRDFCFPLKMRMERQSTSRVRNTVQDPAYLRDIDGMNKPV
Chain of UniProt Q01959 (whole entry, looked up): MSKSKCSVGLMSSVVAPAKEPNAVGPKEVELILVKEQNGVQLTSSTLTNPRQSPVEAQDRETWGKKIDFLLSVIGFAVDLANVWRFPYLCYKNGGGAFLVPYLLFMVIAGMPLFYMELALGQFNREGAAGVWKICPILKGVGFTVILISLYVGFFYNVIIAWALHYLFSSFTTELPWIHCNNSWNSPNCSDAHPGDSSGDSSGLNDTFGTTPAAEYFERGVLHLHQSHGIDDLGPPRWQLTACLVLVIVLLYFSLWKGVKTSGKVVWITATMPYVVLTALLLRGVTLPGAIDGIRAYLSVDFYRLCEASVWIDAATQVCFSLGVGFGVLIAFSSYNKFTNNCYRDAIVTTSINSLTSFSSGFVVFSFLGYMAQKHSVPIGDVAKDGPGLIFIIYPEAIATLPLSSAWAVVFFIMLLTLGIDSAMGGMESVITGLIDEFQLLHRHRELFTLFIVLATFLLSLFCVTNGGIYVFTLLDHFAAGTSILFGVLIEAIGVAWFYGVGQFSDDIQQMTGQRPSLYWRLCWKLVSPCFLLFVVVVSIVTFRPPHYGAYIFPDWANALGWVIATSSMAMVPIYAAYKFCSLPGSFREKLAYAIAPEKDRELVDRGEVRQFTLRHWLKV
Chain of UniProt P20309 (whole entry, looked up): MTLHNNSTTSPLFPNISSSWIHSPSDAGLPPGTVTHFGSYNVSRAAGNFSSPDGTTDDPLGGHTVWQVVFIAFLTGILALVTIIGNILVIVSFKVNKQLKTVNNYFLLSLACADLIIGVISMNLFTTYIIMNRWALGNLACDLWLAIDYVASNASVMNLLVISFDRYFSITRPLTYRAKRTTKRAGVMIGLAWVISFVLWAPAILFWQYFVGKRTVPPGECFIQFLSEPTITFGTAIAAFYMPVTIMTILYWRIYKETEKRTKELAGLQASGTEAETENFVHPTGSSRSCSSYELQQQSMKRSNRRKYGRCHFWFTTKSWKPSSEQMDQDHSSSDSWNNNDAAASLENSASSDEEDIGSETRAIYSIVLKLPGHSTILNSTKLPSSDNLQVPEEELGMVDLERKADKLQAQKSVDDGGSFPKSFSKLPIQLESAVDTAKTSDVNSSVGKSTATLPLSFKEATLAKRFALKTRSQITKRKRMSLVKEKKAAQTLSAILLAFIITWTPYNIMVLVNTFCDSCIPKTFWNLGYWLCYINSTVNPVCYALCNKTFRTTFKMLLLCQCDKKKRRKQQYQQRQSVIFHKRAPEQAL

Set 1 — read-out: cell-free assay; tested at: 10 µM; quantity: inhibition
Compound: COc1ccc2c(c1)O[C@H](c1ccc(OC)c(OC)c1)C[C@@H]2NC(=O)C1(c2ccc3c(c2)OC(F)(F)O3)CC1
DRD5 (Homo sapiens, UniProt P21918): 20.7%
SLC6A3 (Homo sapiens, UniProt Q01959): 6.33%
CHRM3 (Homo sapiens, UniProt P20309): 1.13%
SLC6A2 (Homo sapiens, UniProt P23975): -24.1%
OPRK1 (Homo sapiens, UniProt P41145): 34.1%
HTR1A (Homo sapiens, UniProt P08908): -22.7%
OPRD1 (Homo sapiens, UniProt P41143): -7.29%

Other studies, line by line
CC(C)S(=O)(=O)c1cc2c(Nc3ccc4sc(C5CCCC5)nc4c3)ccnc2cc1OCCO  survival (L929 RIPK3-/- reexpressing RIPK3 K51A; CCK-8; 1.563 µM, with: zVAD): 89.2% and 96.8% and 84.3% and 94.2%
Cc1ccc(/N=C/N(C)/C=N/c2ccc(C)cc2C)c(C)c1  viability (A-375; 100 µM, 18 h): 45.3%
Clc1ccc(C(OCCN2CCCCC2)c2ccccc2)cc1 (centres unmarked)  nuclear SOX9 intensity (mouse MPNST tumor cells; high-content immunofluorescence imaging, item: nuclear SOX9; 10 µM, 12 h, mean of 2 replicates; reference: DMSO control, higher = more nuclear SOX9): 195 % of DMSO
CC[C@]1(O)CC[C@H]2[C@@H]3CCC4=CCCC[C@@H]4[C@H]3CC[C@@]21C  activity class (Sarcocystis neurona; parasite activity; 10 µM, 96 h): inactive
C[N+]12CCC(CC1)C(OC(=O)C(O)(c1ccccc1)c1ccccc1)C2 (centres unmarked)  viability (A-375; 100 µM, 18 h): 97.2%
Cc1n[nH]c2c1C(c1c(Cl)nc3sccn13)SCC(O)=N2 (centres unmarked)  remaining compound (mouse, microsomes or S9; 2 µM, 0.5 h): 32.5%
O=c1c2ccccc2[se]n1-c1ccccc1  activity class (Sarcocystis neurona; parasite activity; 10 µM, 96 h): inactive
